Values quoted from earlier work as cited in several papers.
Each line is one published result; not all experiments were run side by side. ± gives the spread as reported.
EGFR L858R: Epidermal growth factor receptor (EGFR, Homo sapiens, UniProt P00533, L858R)
Sequence of UniProt P27338 (whole entry, looked up): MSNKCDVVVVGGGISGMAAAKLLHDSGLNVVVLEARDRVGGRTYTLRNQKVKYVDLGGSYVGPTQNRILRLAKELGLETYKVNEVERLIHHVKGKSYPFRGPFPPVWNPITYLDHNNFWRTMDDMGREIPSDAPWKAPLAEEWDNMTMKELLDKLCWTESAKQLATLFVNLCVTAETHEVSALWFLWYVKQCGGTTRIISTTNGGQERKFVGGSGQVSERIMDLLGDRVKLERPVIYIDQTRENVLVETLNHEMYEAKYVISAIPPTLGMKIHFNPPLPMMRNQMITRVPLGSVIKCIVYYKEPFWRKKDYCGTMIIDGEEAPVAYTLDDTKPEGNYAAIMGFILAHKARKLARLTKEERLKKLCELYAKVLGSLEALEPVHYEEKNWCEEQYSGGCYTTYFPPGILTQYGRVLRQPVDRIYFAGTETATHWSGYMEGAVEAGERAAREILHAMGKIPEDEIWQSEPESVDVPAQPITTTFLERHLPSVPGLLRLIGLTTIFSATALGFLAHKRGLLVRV
Sequence of UniProt P9WHE9 (whole entry, looked up): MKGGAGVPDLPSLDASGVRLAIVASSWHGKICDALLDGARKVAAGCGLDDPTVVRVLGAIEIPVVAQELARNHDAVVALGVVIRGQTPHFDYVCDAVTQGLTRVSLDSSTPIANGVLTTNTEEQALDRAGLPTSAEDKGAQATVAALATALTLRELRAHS
Sequence of UniProt P63073 (28-217, looked up): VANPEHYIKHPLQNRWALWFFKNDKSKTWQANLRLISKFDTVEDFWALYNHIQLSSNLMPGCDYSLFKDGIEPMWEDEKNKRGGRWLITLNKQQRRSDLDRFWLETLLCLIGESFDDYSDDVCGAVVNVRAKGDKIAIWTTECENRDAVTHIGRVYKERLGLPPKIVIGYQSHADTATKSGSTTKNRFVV
Sequence of UniProt P51692 (whole entry, looked up): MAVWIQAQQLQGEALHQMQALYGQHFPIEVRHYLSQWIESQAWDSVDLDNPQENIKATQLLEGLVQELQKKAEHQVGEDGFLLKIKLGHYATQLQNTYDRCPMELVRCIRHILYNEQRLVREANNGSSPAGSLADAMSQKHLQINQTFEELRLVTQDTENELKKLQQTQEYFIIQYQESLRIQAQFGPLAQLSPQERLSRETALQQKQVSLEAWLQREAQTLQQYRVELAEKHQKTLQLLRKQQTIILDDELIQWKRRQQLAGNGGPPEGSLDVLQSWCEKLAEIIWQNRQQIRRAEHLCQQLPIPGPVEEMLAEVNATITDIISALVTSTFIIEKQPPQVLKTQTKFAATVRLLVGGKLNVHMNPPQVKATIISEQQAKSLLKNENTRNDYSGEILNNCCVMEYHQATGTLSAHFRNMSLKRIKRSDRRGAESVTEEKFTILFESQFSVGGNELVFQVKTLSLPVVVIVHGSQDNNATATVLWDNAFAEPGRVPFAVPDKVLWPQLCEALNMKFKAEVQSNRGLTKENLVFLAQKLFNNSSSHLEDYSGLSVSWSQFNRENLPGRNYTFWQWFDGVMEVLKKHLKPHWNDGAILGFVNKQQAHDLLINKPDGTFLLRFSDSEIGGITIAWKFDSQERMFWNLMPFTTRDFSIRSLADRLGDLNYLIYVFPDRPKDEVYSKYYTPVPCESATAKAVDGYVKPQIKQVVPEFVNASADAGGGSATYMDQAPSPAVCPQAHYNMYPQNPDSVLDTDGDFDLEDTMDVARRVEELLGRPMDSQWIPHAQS
Sequence of UniProt Q9UUB1 (whole entry, looked up): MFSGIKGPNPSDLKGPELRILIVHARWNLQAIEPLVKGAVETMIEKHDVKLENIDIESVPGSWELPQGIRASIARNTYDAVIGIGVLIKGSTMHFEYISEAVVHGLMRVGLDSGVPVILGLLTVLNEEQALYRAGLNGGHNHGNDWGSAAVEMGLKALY
Sequence of UniProt P83788 (whole entry, looked up): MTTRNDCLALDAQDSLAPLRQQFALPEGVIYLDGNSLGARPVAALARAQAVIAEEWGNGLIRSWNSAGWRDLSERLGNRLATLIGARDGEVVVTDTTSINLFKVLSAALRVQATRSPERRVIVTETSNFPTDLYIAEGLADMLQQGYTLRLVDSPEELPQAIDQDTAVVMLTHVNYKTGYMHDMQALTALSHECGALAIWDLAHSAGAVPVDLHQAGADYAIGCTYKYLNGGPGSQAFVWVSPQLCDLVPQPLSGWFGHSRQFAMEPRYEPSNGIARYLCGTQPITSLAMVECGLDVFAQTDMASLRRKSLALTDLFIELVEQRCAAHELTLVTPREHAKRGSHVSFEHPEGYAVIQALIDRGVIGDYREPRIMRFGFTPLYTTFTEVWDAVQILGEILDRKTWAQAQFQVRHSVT

SMILES	target	test	test system	conditions	how to read	endpoint	result
Cc1cc2c(c(=O)o1)C=C1CCC(C(C)Cn3cnc4c(N)ncnc43)CC1O2 (stereo not shown)	ABCA1	–	–	concentration not given	–	ABCA1 expression	increased
BP(=O)(OP(=O)([O-])OC[C@H]1O[C@@H](n2c[n+](C)c3c(=O)[nH]c(N)nc32)[C@H](O)[C@@H]1O)OP(=O)([O-])OC[C@H]1O[C@@H](n2c[n+](C)c3c(=O)[nH]c(N)nc32)[C@H](O)[C@@H]1O	Eukaryotic translation initiation factor 4E, residues 28-217 (Eif4e, Mus musculus, UniProt P63073)	–	–	pH 7.2, 20 °C	–	association constant	11.1 ± 0.2 µM⁻¹
CCOC(=O)CNC(=O)CN1C(=O)S/C(=C\c2ccc(C)cc2)C1=O	α-glucosidase	enzyme activity	–	200 µM	–	inhibition	51%
CC(=O)N[C@H]1[C@@H](O)[C@H](O)[C@@H](CO)O[C@H]1O	N-acetylmannosamine kinase (Staphylococcus aureus)	substrate	–	–	–	Km	140 ± 8 µM
CO[C@H]1O[C@H](CNS(=O)(=O)c2c(C)cc(C)cc2C)[C@@H](O)[C@H](O)[C@@H]1O	lecB (Pseudomonas aeruginosa, UniProt Q9HYN5)	binding, ITC	–	–	–	ΔH	-7.9 kcal/mol
CC(=O)c1cc(OCc2ccc(Br)cc2)ccc1O	MAOB (Homo sapiens, UniProt P27338)	–	–	–	reference: IC50 MAO-A over IC50 MAO-B	selectivity ratio	17
C=CC(=O)N1CCC[C@@H](n2nc(-c3cccc4ccccc34)c3c(N)ncnc32)C1	EGFR L858R	–	–	–	–	kinact/Ki	100000 ± 60000 M⁻¹ s⁻¹
Nc1c2ncn3c2nc[n+]1[C@@H]1O[C@H](COP(=O)(O)OP(=O)([O-])OC[C@H]2O[C@@H]3[C@H](OP(=O)(O)O)[C@@H]2O)[C@@H](O)[C@H]1O	cADPR receptor, sea urchin	–	sea urchin egg homogenate	concentration not given	–	activity	inactive
COc1ccc(-n2nc3c4cc(Cl)ccc4[nH]cc-3c2=O)cc1	GABAA receptor α2β3γ2	ion current, modulator	–	α2β3γ2, with: GABA EC3-5	–	maximum modulation	~1000%
CCOC(=O)C(=O)Nc1c(NC[C@H](O)[C@H](O)[C@H](O)CO)[nH]c(=O)[nH]c1=O	6,7-dimethyl-8-ribityllumazine synthase (rib4, Schizosaccharomyces pombe, UniProt Q9UUB1)	enzyme kinetics	–	pH 7.0	lower = tighter substrate binding	Ks	1 ± 0.1 µM
OC[C@H]1O[C@@H](OCc2cn([C@H]3[C@H](O)[C@@H](O)[C@H](c4cn([C@H]5[C@H](O)[C@@H](O)[C@H](n6cc([C@@H]7O[C@H](CO)[C@@H](n8cc(CO[C@@H]9O[C@H](CO)[C@H](O)[C@H](O)[C@H]9O)nn8)[C@H](O)[C@H]7O)nn6)O[C@@H]5CO)nn4)O[C@@H]3CO)nn2)[C@H](O)[C@@H](O)[C@H]1O	lecA (Pseudomonas aeruginosa, UniProt Q05097)	ITC	–	–	–	ΔG	-10.3 kcal/mol
Cc1ccc(S(=O)(=O)N(CC(=O)N(Cc2ccccc2)c2ccc(C(=O)O)c(O)c2)C(=O)OC(C)(C)C)cc1	Signal transducer and activator of transcription 5B, SH2 domain (STAT5B, Homo sapiens, UniProt P51692)	fluorescence polarization	–	–	reference: STAT5B over STAT3	selectivity ratio	2 to 3 fold
Nc1c(O)cccc1C(=O)C[C@H](N)C(=O)O	Kynureninase (kynU, Pseudomonas fluorescens, UniProt P83788)	substrate	–	Pseudomonas enzyme	–	Km	200 µM
C=CC(=O)N1CCC[C@@H](n2nc(-c3ccc4ccccc4c3)c3c(N)ncnc32)C1	EGFR L858R	–	–	–	–	kinact	0.14 ± 0.01 min⁻¹
CC(C)C(=O)Nc1c(NC[C@H](O)[C@H](O)[C@H](O)CO)[nH]c(=O)[nH]c1=O	ribH (Mycobacterium tuberculosis, UniProt P9WHE9)	–	–	pH 7.0	–	Ki (uncompetitive, ESI)	77 ± 28 µM
C[C@H](NC(=O)[C@@H]1CCCN1C(=O)[C@@H]1CCCN1C(=O)[C@H](C)NC(=O)[C@@H](NC(=O)[C@H](CO)NC(=O)CNC(=O)[C@@H]1CCCN1C(=O)[C@H](C)NC(=O)[C@@H]1CCCN1C(=O)[C@@H](N)CCCNC(=N)N)[C@@H](C)O)C(=O)N[C@@H](Cc1c[nH]cn1)C(=O)NCC(=O)O	16 A monoclonal antibody	SPR	–	–	–	koff	0.0039 s⁻¹

A few entries again:
SMILES	target	test	test system	conditions	how to read	endpoint	result
CO[C@H]1O[C@H](CNS(=O)(=O)c2c(C)cc(C)cc2C)[C@@H](O)[C@H](O)[C@@H]1O	lecB (Pseudomonas aeruginosa, UniProt Q9HYN5)	binding, ITC	–	–	–	ΔH	-7.9 kcal/mol
